Measured values pooled from the literature.
Protocols differ between the studies behind these lines. Several values in a cell are separate wells, animals, samples, runs or records. Numbers after ± are the reported error.

C[C@H]1CN(C(=O)CC#N)[C@]12CCN(c1ncnc3[nH]ccc13)C2  half-life (geometric mean) (healthy adults, plasma; oral, 6 mg single dose): 2.9 h
CC(C)C[C@H](N)C(=O)N[C@@H](Cc1c[nH]c2ccccc12)C(=O)N[C@@H](Cc1c[nH]c2ccccc12)C(=O)N[C@@H](CCCNC(=N)N)C(=O)N[C@@H](Cc1c[nH]c2ccccc12)C(=O)N[C@@H](Cc1c[nH]c2ccccc12)C(=O)N[C@@H](CCCNC(=N)N)C(=O)N[C@@H](Cc1c[nH]c2ccccc12)C(=O)N[C@@H](CCCNC(=N)N)C(=O)O  beta-sheet content (circular dichroism; 50% TFE): 18.4%
Cl.N=C(CC(O)c1cc2c(F)cc(F)cc2c2cc(C(F)(F)F)ccc12)Nc1ccc(F)c(F)c1 (stereo not drawn)  degradation (human plasma; 2.5 ng/mL, 24 h, 37 °C): 27.5%
CN[C@H](CC(C)C)C(=O)N[C@H]1C(=O)N[C@@H](CC(N)=O)C(=O)N[C@H]2C(=O)N[C@H]3C(=O)N[C@H](C(=O)N[C@H](C(=O)O)c4cc(O)cc(O)c4-c4cc3ccc4O)[C@H](O)c3ccc(c(Cl)c3)Oc3cc2cc(c3O[C@@H]2O[C@H](CO)[C@@H](O)[C@H](O)[C@H]2O[C@H]2C[C@](C)(N)[C@H](O)[C@H](C)O2)Oc2ccc(cc2Cl)[C@H]1O  Cmin (guinea pig, tissue cage fluid; intraperitoneal, 15 mg/kg single, 12 h): 1460 ng/mL
CNc1ccc(-c2nc3ccc(O)cc3s2)cc1 [carbon-11 labelled]  SUV (ex vivo biodistribution; B6SJL mouse, normal, skin; intravenous, 30 min): 0.341 ± 0.317
N#CCC(=O)Nc1ccc(C2CCCCC2)cc1  hepatic clearance (hepatocyte stability; cryopreserved rat hepatocytes; 1 µM): 50 mL/min/kg
CC(C)NCCCC[C@@H]1NC(=O)[C@H](Cc2ccc(O)cc2)NC(=O)[C@H](Cc2ccccc2)NC(=O)CC[C@H](C(=O)N[C@@H](CCCCNC(C)C)C(=O)N[C@@H](CCCCNC(=O)[C@H](CCC(=O)O)NC(=O)[C@H](CCC(=O)O)NC(=O)[C@H](CCC(=O)O)NC(=O)CN2CCN(CC(=O)O)CCN(CC(=O)O)CCN(CC(=O)O)CC2)C(N)=O)NC(=O)CNC(=O)[C@H](Cc2ccc3ccccc3c2)NC(=O)[C@@H](CCCNC(=N)N)NC1=O [gallium-68 labelled]  tissue uptake (mouse with PC-3 xenograft, spleen; intravenous, 1 h): 0.39 %ID/g
CCN1/C(=C/C(C)=O)Sc2ccc(F)cc21  PR interval (cynomolgus monkey; oral, 10 mg/kg, 1 h post-dose): 91 ± 3 ms
O=C(N[C@H](Cc1c[nH]c2ccccc12)C(=O)Nc1ccncc1)c1ccc(-c2cc(C(F)(F)F)ccc2F)cc1F  concentration (Swiss Webster mouse, female, liver; oral, 50 mg/kg, 8 h, 20% HPβCD vehicle): 5.88 µM
O=C1OC2(c3ccc(O)cc3Oc3cc(O)ccc32)c2ccccc21  saturation concentration (confocal imaging; cargo-loaded PSP-2 coacervates in Opti-MEM; concentration not given, with: cargo 5 µM): 10 to 25 µM
Cc1cc(NC2CCN(C(=O)OC3CCN(C(=O)/C=C/CN(C)C)C3)CC2)n2ncc(C(C)C)c2n1 (stereo not drawn)  patients with Diarrhea (patients with advanced solid tumours; dose not given, QD arm, any grade): 49%
N[C@@H](Cc1ccc(O)c(O)c1)C(=O)O  serum protein binding (ultrafiltration; normal rat serum; 37 °C): 43 ± 22%
CC(C)(C)NC(=O)C1CCN(Cc2cccc(/N=N/c3ccccc3F)c2)CC1  absorption maximum, cis isomer (DMSO; 25 µM, 25 °C): 430 nm
O=C(NCCN1CCCC1=O)c1ccc(C2CCCCC2)cc1  hepatic clearance (liver microsome stability; mouse liver microsomes; 1 µM): 82 mL/min/kg
Cc1ccc(Sc2ccccc2N2CCNCC2)c(C)c1  participants with TEAE (refers to: feeling abnormal; healthy adult women; oral, 5 mg daily, 12 days): 0%
O=C(Nc1ccc(Cl)cc1)Nc1ccc(Cl)c(Cl)c1  milk fat partition ratio (cow whole milk; 20 nM; reference: milk fat over skim milk): 166
NC1(C(=O)N[C@@H](CCO)c2ccc(Cl)cc2)CCN(c2nc[nH]c3nccc2-3)CC1  incidence of maculopapular rash (metastatic CRPC patients; 320 mg b.i.d., any grade, treatment-related, with: enzalutamide 160 mg daily): 0%
O=C(NCCc1cccnc1)c1ccc(C2CCCCC2)cc1  hepatic clearance (liver microsome stability; mouse liver microsomes; 1 µM): 85 mL/min/kg
CCc1cc(C(=O)NC)c2nccc(N3CCc4c(cc(Cn5ccnc5)cc4-c4cn(C)nc4C(F)(F)F)C3=O)c2c1  change in clinical chemistry or haematology parameter (refers to: HDW; Sprague Dawley rat; oral, 50 mg/kg once daily, 7 days; reference: vehicle): 7.43%
CC(C)Cn1cnc2c(N)nc3ccccc3c21  remaining compound (C57BL/6J CYP1A-knockout female mice, corn oil-treated, liver microsomes; 1 µM, 45 min; reference: control): 56%
O=C(O)CCC(=O)O.[2H]C([2H])([2H])Oc1cc(C)c2[nH]ccc2c1CN1CC[C@@H](C2CC2)C[C@H]1c1ccc(C(=O)O)cc1  subjects with elevated cholesterol TEAE (multiple ascending dose; healthy Chinese subjects; 100 mg twice daily): 0%
Cn1nc2c(=O)n(C3CC3)cnc2c1[C@](O)(c1cnc(C(F)(F)F)c(Cl)c1)C(F)(F)F  AUC(0-96 h) (humanized SCID mice, blood; 1 mg/kg once daily, 6 days, infected): 31.2 µM·h
Cc1cc(Nc2ccc(S(F)(F)(F)(F)F)cc2)n2nc(C(C)(F)F)nc2n1  adverse event gastrointestinal disorders (Plasmodium vivax malaria patients; oral, 800 mg): 28.6%
O=C(COc1ccc(Cl)cc1)NC12CC(c3nnc([C@H]4C[C@@H](OC(F)(F)F)C4)o3)(C1)C2  treatment-emergent adverse events (refers to: Myalgia; healthy humans, both sexes; oral, 100 mg, single ascending dose; reference: subjects): 16.7%
CCOCc1nc(O)c(-c2nnc(Cc3ccc(Cl)cn3)o2)c(O)c1-c1c(OC)cccc1OC  trough concentration (rat, post surgery, plasma; oral, 0.06 mg/kg once daily, day 6 post surgery): 3 nM
NC(=O)CCNC(=O)c1ccc(C2CCCCC2)cc1  hepatic clearance (liver microsome stability; dog liver microsomes; 1 µM): 18 mL/min/kg
CCN1CCN(Cc2ccc(NC(=O)c3ccc(C)c(NC(=O)c4cncc(-c5cccs5)c4)c3)cc2C(F)(F)F)CC1  plasma concentration (LC-MS/MS; C57BL/6 mouse, plasma; intraperitoneal, 10 mg/kg single dose, 2 h): 168 ng/mL and 190 ng/mL and 201 ng/mL
CNC(=O)c1ccc(-c2cnc3ncc(Cc4ccc5ncccc5c4)n3n2)cc1F  patients with adverse event (refers to: Headache; gastric cancer patients; oral, 600 mg twice daily, expansion cohort, grade 3-4): 0%
C[C@H](NC(=O)/C(C#N)=C/c1cccc(Br)n1)c1ccccc1  half-life (LC-MS/MS; patients, plasma; oral, 1 mg/kg, cycle 1 day 1): 1.3 h
Cn1cc(Nc2nccc(-c3ccc4c(c3)CN(C3COC3)CC[C@H]4NC(=O)c3cn(C(C)(C)C)nn3)n2)cn1  percent change from baseline (refers to: Lymphocytes count; human, clinical trial, whole blood; 150 mg twice daily, follow-up): 3.21%
CN(CC#N)C(=O)C[C@H](Nc1nc2ccccc2[nH]1)c1cccc(C(F)(F)F)c1  apparent volume of distribution (human; intravenous infusion, 5 mg/kg, 1 mg/mL formulation): 99.9 ± 31.2 L
O=C(O)CCCOc1ccc([18F])cc1-c1cc(-c2ccccc2C(F)(F)F)n(-c2ccccc2)n1  unchanged fraction of radioactivity (radio-TLC; ddY mice male, heart; intravenous, 37 MBq, 30 min): 95.1 ± 2.4%
CNCc1ccc(-c2[nH]c3cc(F)cc4c3c2CCNC4=O)cc1  dysgeusia incidence (human patients; oral, 240 mg twice daily, all grades): 33.3%
COc1ccnc(C(=O)O)c1O  KFoc (soil adsorption; clay loam soil; pH 7.2, organic carbon 4.4 %): 3880 mL/g
N#Cc1ccc2c(c1)[C@H]1CCCN(C(=O)c3ccc4[nH]cnc4c3)[C@H]1C2  androstenedione level (human, female; 10 mg, end of trial): 3.2 nmol/L
C=CC[C@@H]1/C=C(\C)C[C@H](C)C[C@H](OC)[C@H]2O[C@@](O)(C(=O)C(=O)N3CCCC[C@H]3C(=O)O[C@H](/C(C)=C/[C@@H]3CC[C@@H](O)[C@H](OC)C3)[C@H](C)[C@@H](O)CC1=O)[C@H](C)C[C@@H]2OC  plasma creatinine (male Wistar Kyoto rat; intraperitoneal, 0.5 mg/kg/day, day 28, at sacrifice): 29 ± 2 µmol/L
O=C(Nc1nc2cccc(-c3ccc(CN4CCS(=O)(=O)CC4)cc3)n2n1)C1CC1  patients with adverse event (refers to: angina pectoris; rheumatoid arthritis patients; oral, 30 mg once daily, 4 weeks, any relatedness): 5.9%
C=CC(=O)Nc1cc(Nc2nccc(-c3cn(C)c4ccccc34)n2)c(OC)cc1N(C)CCN(C)C  recovery (storage stability; human dried blood spot; 2 h, on ice, HQC level): 106%
CN(CCC#N)C(=O)c1ccc([C@H]2[C@@H](F)[C@@H](F)C[C@@H](F)[C@H]2F)cc1  hepatic clearance (liver microsome stability; rat liver microsomes; 1 µM): 15 mL/min/kg
COc1cc(Nc2ncc3c(n2)-c2ccc(Cl)cc2C(c2c(F)cccc2OC)=NC3)ccc1C(=O)O  patients with adverse event (refers to: Hypokalemia, grade 1; cancer patients, phase 1/2; oral, dose not given, with: pembrolizumab): 13%
Cn1ncnc1[C@H]1c2n[nH]c(=O)c3cc(F)cc(c23)N[C@@H]1c1ccc(F)cc1  AUC(0-8h) (human patients, plasma; oral, 400 µg/m2 twice daily day 1, day 5, dose level DL2, median, with: temozolomide 20 mg/m2 daily days 2-6): 60.6 ng·h/mL
Cc1ccc([C@@H]2O[C@H](CO)[C@@H](O)[C@H](O)[C@H]2O)cc1Cc1ccc(-c2ccc(F)cc2)s1  urinary phosphate excretion change (refers to: inorganic phosphorus; Japanese type 2 diabetes patients; 200 mg, day 6, 24 h urine collection; reference: baseline): 58.7 mg
O=C(c1ccc(C2CCCCC2)cc1)N1CC(O)C1  hepatic clearance (liver microsome stability; cynomolgus liver microsomes; 1 µM): 41 mL/min/kg
Cc1cn(C(=O)c2c(-c3c(Cl)cc(Cl)cc3Cl)noc2C(C)(C)F)c2cccc(/C=C/C(=O)O)c12  AUC(0-8h) (human patients; 1000 mg bid, cycle 1 day 1): 151000 ng·h/mL
COc1cc(N2CCC(N3CCN(C)CC3)CC2)ccc1Nc1ncnc(Nc2ccccc2S(=O)(=O)C(C)C)n1  Cmax (human, plasma; oral, 75 mg, day 28): 258 ng/mL
OC[C@H]1O[C@@H](c2ccc(Cl)c(Cc3ccc(O[C@H]4CCOC4)cc3)c2)[C@H](O)[C@@H](O)[C@@H]1O  change in Calcium (Japanese type 1 diabetes patients, blood; 2.5 mg, day 28; reference: baseline): -0.1 mg/dL
CSCC[C@H](NC(=O)[C@@H](N)CCSC)C(=O)N[C@@H](CCCNC(=N)N)C(=O)N[C@@H](Cc1c[nH]c2ccccc12)C(=O)N[C@@H](CO)C(=O)N[C@@H](CCCNC(=N)N)C(=O)N[C@@H](CCCCN)C(=O)N[C@@H](CCSC)C(=O)N1CCC[C@H]1C(=O)N[C@@H](CS)C(=O)N[C@H](C(=O)N[C@@H](CO)C(N)=O)C(C)C  remaining activity (12G5 competition, SUP-T1 cells; human plasma; concentration not given, 2 h): 3 ± 1%
CN(C(=O)C(C)(C)c1cc(C(F)(F)F)cc(C(F)(F)F)c1)c1cnc(N2C[C@H]3COCCN3C[C@H]2CO)cc1-c1ccc(F)cc1[14CH3]  pathway contribution to clearance (pooled human liver microsomes; pH 7.4, substrate depletion): 100%
CC(C)(C(=O)N1CCOc2c(C#N)cncc2C1)C(F)F  subjects with adverse event (refers to: Investigations; human; oral, 10 mg, CSF pharmacokinetic cohort): 16.7%
CCCOc1ccc(NC(=O)CN2CCN(C)CC2)cc1-c1nc(CC)c(CC)c(=O)[nH]1  maximal diastolic BP decrease difference (healthy Chinese men; 10 mg, with: alcohol 0.5 g/kg; reference: compound with placebo alcohol): 0 mmHg
C[C@@H](Nc1cc(F)cc(F)c1)c1cc(C(=O)N(C)C)cc2c(=O)cc(N3CCOCC3)oc12  dose interruption due to AE (advanced solid tumour patients; oral, 120 mg twice daily, continuous monotherapy): 40%
CNC(=O)c1ccc(-c2cnc3ncc(Cc4ccc5ncccc5c4)n3n2)cc1F  AUC(0-inf) (human, moderate NCI classification, plasma; oral, 200 mg, adjusted geometric mean): 7280 ng·h/mL
N#CCC(=O)Nc1ccc([C@H]2[C@@H](F)[C@@H](F)C[C@@H](F)[C@H]2F)cc1  hepatic clearance (liver microsome stability; rat liver microsomes; 1 µM): 6.1 mL/min/kg
Cc1cc(Nc2ccc(S(F)(F)(F)(F)F)cc2)n2nc(C(C)(F)F)nc2n1  blood concentration (CD-1 mouse, female, whole blood; oral, 300 mg/kg daily, 8 h after dose 3, spray-dried dispersion): 255 ± 101 µM
CN1CCN(C(=O)c2ccc([C@H]3[C@@H](F)[C@@H](F)C[C@@H](F)[C@H]3F)cc2)CC1  hepatic clearance (liver microsome stability; mouse liver microsomes; 1 µM): 48 mL/min/kg
Cc1ccc(CCC(=O)Nc2nnc(S(N)(=O)=O)s2)cc1  unbound fraction (mouse, plasma): 0.35
CCOc1c([C@H](C)n2nc(C)c3c(N)ncnc32)cc(Cl)c(F)c1[C@@H]1CNC(=O)C1  Cmin (patients with B-cell malignancies, plasma; oral, 10 mg once daily, cycle 1 day 15, monotherapy): 0.098 µM

Some of these lines once more:
CNCc1ccc(-c2[nH]c3cc(F)cc4c3c2CCNC4=O)cc1  dysgeusia incidence (human patients; oral, 240 mg twice daily, all grades): 33.3%
COc1ccnc(C(=O)O)c1O  KFoc (soil adsorption; clay loam soil; pH 7.2, organic carbon 4.4 %): 3880 mL/g
N#Cc1ccc2c(c1)[C@H]1CCCN(C(=O)c3ccc4[nH]cnc4c3)[C@H]1C2  androstenedione level (human, female; 10 mg, end of trial): 3.2 nmol/L
C=CC[C@@H]1/C=C(\C)C[C@H](C)C[C@H](OC)[C@H]2O[C@@](O)(C(=O)C(=O)N3CCCC[C@H]3C(=O)O[C@H](/C(C)=C/[C@@H]3CC[C@@H](O)[C@H](OC)C3)[C@H](C)[C@@H](O)CC1=O)[C@H](C)C[C@@H]2OC  plasma creatinine (male Wistar Kyoto rat; intraperitoneal, 0.5 mg/kg/day, day 28, at sacrifice): 29 ± 2 µmol/L
